Results collected from several papers.
Each numbered part is a random draw from the data of one study; scales do not carry over between parts. Substitutions count along the parent as printed.
Sequence of UniProt P49427 (whole entry, looked up): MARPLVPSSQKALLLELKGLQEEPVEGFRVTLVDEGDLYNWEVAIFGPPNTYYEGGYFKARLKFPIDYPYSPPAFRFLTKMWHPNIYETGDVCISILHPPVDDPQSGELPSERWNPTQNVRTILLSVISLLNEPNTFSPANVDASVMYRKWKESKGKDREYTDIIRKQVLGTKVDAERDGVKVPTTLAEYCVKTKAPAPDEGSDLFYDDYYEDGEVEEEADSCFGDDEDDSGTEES
Sequence of UniProt P61077 (whole entry, looked up): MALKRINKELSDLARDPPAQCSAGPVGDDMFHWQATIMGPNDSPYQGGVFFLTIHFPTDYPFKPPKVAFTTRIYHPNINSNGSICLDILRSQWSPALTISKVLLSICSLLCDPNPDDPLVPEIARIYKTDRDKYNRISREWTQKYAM
Sequence of UniProt P60604 (whole entry, looked up): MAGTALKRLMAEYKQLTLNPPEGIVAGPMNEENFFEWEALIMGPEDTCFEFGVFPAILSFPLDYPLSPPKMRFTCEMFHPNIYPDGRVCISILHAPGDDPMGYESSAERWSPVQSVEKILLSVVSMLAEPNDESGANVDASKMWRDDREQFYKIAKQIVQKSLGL

Sample 1
Target: Interferon regulatory factor 3, full length, phosphomimetic (IRF3, Homo sapiens, UniProt Q14653, residues 1-427, S386D/S396D/S398D/S402D/T404D/S405D)
Method: protein-binding microarray
Form: double-stranded DNA, one strand shown
Medium: in vitro
Concentration: 2540 nM top
Setting: 60-bp whole probe
Added: salmon DNA 0.4 mg/ml
Relative to: random background probes
Reading: higher = stronger binding
All sequences stand within: GCCTAGCAC … GTCTTGATTCGCTTGACGCTGCTG
Construct (chain): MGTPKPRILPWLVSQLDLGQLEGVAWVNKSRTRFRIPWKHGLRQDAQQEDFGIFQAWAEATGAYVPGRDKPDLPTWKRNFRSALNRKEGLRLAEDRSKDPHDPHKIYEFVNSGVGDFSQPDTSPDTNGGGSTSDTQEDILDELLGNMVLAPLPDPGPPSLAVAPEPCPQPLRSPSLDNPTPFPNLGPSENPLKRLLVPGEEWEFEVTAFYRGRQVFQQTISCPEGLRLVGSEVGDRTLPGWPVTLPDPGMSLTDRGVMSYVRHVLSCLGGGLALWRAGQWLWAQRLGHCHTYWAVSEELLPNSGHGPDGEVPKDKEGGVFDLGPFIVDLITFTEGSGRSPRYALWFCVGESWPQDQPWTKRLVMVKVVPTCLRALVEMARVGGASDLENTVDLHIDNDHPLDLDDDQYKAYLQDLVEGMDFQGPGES
Oligonucleotide | fitted relative affinity
TTAGGTATCCTGATCCTTTAGTGCTAG | 1.85 z-score
AAGTTTCTCCTTTCCAAATAGTGCTAG | 5.02 z-score
TTAGATTTCAGTTTCGATTGGTGCTAG | 5.37 z-score
GACGGTCTCGGTTTGGGGACGTGCTAG | 1.37 z-score
CACGGTTTCCTTTCCCTGACGTGCTAG | 9.32 z-score
GACGGACTGGGGACTGGGGACGTGCTA | -0.905 z-score
GACGTTTTCGGGTTTCGAGACGTGCTA | 3.19 z-score
GCATCTATCTTAAATAGGGACGTGCTA | 0.985 z-score
TTAGGACTGGGTCTGGGTTAGTGCTAG | -0.767 z-score
TTAGATTTCGACTTTCGGTTAGTGCTA | 2.41 z-score
GACGGTATCCGTATCCTGACGTGCTAG | 3.81 z-score
GACGGTTTCCGTCTCCTGACGTGCTAG | 6.39 z-score
TTAGGACTGGGGACTGGGTCAGTGCTA | -1.04 z-score
GACGAGATCAGACTGGAGACGTGCTAG | -0.181 z-score
TTAGATTTCACTCTCGATTAGTGCTAG | 3.09 z-score
GACGAGTTCAGTTTCGAGACGTGCTAG | 2.77 z-score
TTAGATTTCAGTTCCGATTAGTGCTAG | 3.92 z-score
GACGGTATGGGTTTCGGGACGTGCTAG | 1.42 z-score
GAAGGTCTCGGTATCGGGACGTGCTAG | 1.35 z-score

Sample 2
Target: Centromere-binding protein 1, full length, His-tagged (CBF1, Saccharomyces cerevisiae, UniProt P17106, residues 1-351)
Sequence of UniProt P17106 (whole entry, looked up): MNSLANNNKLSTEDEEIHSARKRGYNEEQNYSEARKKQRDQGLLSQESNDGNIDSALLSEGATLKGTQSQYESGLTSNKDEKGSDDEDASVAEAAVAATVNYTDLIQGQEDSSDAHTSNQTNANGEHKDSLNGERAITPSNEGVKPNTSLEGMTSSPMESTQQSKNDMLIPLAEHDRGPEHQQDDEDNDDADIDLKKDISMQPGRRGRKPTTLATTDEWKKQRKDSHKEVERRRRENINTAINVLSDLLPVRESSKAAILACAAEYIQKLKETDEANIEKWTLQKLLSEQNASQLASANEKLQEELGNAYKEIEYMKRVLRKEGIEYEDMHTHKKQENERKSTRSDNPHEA
Method: competition protein-binding microarray
Form: double-stranded DNA, one strand shown
Medium: in vitro
Concentration: 2 µM
Setting: whole 60-bp probe, lowest competitor level
Added: Pho4 competitor, 0.05 µM
Reading: higher = stronger binding
All sequences stand within: … GTCTTGATTCGCTTGACGCTGCTG
Oligonucleotide | fluorescence intensity [a.u.]
AAAGCGGTAATTTGTCACGTGTTTTCACATATCTAT | 7820
GGAATTGGTTCACTGATTGAAAGTGATTTTGAGAGG | 89.8
AGCGGCCGCAGAACTCACGTGGCAGCTGAACCCTCC | 828
CCCGAACTTTTTTAGCACGTGAAAATGGAGAAGTCT | 2030
CGGGGTTAAGTTTGGTCAGTGGGTGGCTTGCAGCAG | 82.2
CCAGGCACCGAGGTCCATGTGAAAGGAGGCTTTGCG | 60.5
CCTTGTTTACCGTTCGCCGTGATGGCTCCTTGAGCA | 55.5
ATATATCATTGGTTCCACGTTCACTTCCCTTATTAC | 107
CTCTAATCCCACCACCACATGCCACACTCACCCTCA | 85.1
AGCTCTCTTGTCAGACACGTTTTGTCGAATTTCTTG | 135
CATACCCAACCTTGTGGTGTGGGTGAAGATATTTGT | 77.2
AAAGCGGTAATTTGATGCGTGGGTGCAGATATCTAT | 75.6
CGTCCTAGTGATTGCTGAGTGGGTGCCATGAGGAAG | 73.1
GGCAAAATCAATCTTGACGTGCCAGATATGTTAAAA | 70.2
AAATTACTAAGTTGACAGGTGGGTGACGCCGTATGA | 68.8
CTAACGAAGGTTTGCTCGGTGGGTGACAAGCCAAGT | 78.5
TGGACGTCAAGATTCTCCGTGACTCGGGCTCTTTTC | 70.1
GTCTTGTCTCATTGGTGAGTGGGTGTCCCCACTTCA | 70.7
CTAACGAAGGTTTGTCACCCTACTTACAAGCCAAGT | 62.2
CTTCTCTTCTTCACCGGCGTGATGGGCTGCGTAACA | 90.4
GTCTTATGTGGGTTAAACGTGGGACGAGAACTATAA | 88.8
CGTCCTAGTGATTGTCACGAAACTTCCATGAGGAAG | 94
TACCCTCTCAGTCCGCACGTGCGGAGGGATCAGCCT | 816
CTTCTGTAAATTTGTATCGTGGGTGGACGCGCCCCG | 90.7
CGTTCGTAATGCCAACACGATGCAGACCTGAGCCTA | 59.2

Sample 3
Target: MAFF, bZIP domain (human)
Method: DHFR protein complementation
Medium: yeast
Setting: single substitutions, most at no-binding floor
Relative to: wild-type JUN-FOS pair
Reading: higher = stronger binding
Starting sequence: JUN, bZIP domain (human); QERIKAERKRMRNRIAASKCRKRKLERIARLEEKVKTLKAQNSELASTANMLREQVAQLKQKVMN; partner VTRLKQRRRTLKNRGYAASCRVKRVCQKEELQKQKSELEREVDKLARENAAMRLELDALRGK
Variant | binding fitness
V35A | -1.55 natural log
A49K | -1.16 natural log
S47E | -1.38 natural log
T48H | -1.48 natural log
E32V | -1.35 natural log
A57S | -1.43 natural log
T37V | -1.32 natural log
L31E | -1.55 natural log
Q55S | -1.43 natural log
K36A | -1.51 natural log
A49G | -1.51 natural log

Sample 4
Sequence: B1 (RNF5 RING domain)
Method: yeast two-hybrid
Medium: yeast
Setting: mostly zero background
Relative to: not given
Reading: higher = stronger interaction
B1: RNF5 RING domain (UniProt Q99942); chain ERGGAGATFECNICLETAREAVVSVCGHLYCWPCLHQWLETRPERQECPVCKAGISREKVVP
target | lacZ reporter activity
UBE2G2 UBC core domain (UniProt P60604) | 0
CDC34 UBC core domain (UniProt P49427) | 0
UBE2D3 UBC core domain (UniProt P61077) | 500

Sample 5
Target: CCNE2, cyclin fold, Cln2 fusion (human)
Method: yeast growth competition, sequencing
Medium: yeast
Setting: weak parent motif
Relative to: not given
Reading: higher = stronger binding
Starting sequence: RRM2 docking peptide (human); SKTARRIFQEPTE; partner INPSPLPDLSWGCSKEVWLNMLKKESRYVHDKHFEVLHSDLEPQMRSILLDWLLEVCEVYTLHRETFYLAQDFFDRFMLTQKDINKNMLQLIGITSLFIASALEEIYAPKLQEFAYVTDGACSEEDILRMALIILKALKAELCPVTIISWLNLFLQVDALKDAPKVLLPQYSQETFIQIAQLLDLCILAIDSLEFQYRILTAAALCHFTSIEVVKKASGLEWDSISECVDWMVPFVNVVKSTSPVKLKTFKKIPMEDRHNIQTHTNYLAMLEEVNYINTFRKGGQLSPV
Variant | normalised enrichment score
SKAARRIFQEPTE [T3A] | 0.333
SKTARRIFQEATE [P11A] | 0.164
SKTARRIFQEPAE [T12A] | 0.396
SKTAARIFQEPTE [R5A] | -0.041
SKTARRIFQAPTE [E10A] | 0.62
AKTARRIFQEPTE [S1A] | 0.458

Sample 6
Target: ABI1, truncated, D143A, DHFR fusion (Arabidopsis thaliana)
Method: DHFR PCA, deep sequencing
Medium: yeast
Setting: methotrexate growth selection, single substitutions
Added: (+)-ABA 0.0091 µM
Relative to: wild-type fitted maximum
Reading: higher = stronger binding
Starting sequence: PYL1, truncated, DHFR fusion (Arabidopsis thaliana); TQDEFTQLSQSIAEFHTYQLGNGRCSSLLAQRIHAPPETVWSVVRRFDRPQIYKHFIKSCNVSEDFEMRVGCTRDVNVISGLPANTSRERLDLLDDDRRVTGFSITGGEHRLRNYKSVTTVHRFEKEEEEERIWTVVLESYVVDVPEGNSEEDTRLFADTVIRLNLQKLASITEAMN
Variant | relative binding score
I57F | -5.33%
S42A | 31.8%
E152G | 3.24%
V136Q | -5.21%
L28I | 71.1%
N85G | 22.4%
H110T | 47.7%
A170S | -3.09%
A84L | 18.6%
H122A | 2.22%
C60K | -8.16%
T1M | 46.6%
H16N | -1.32%
N61K | 55.3%
S104M | -0.511%
T154C | 1.12%
I33N | -3.81%
Y18T | -1.84%
S150C | 15.9%

Sample 7
Target: Histone acetyltransferase KAT6A, winged helix 2, GST fusion (KAT6A, Homo sapiens, UniProt Q92794, residues 85-181)
Method: protein binding microarray
Form: double-stranded DNA, one strand shown
Medium: in vitro
Concentration: not given
Setting: 8-mer, flanks averaged, mean of 2 arrays, mostly near background
Relative to: not given
Reading: higher = stronger binding
Construct (chain): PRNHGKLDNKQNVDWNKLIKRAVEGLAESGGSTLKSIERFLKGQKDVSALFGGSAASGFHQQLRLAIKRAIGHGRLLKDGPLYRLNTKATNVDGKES
Oligonucleotide | E-score
AGTGTTGG | -0.0838
CAGCAGTA | 0.0401
AAGAGTAT | -0.165
CGGGGCTC | 0.0724
AAAGGGCT | 0.000295
CACGATTA | -0.00313
CCCGCAAG | -0.064
ATTTGCGC | 0.103
ACCGTGGA | -0.123
ATTTCTTG | 0.12
GTCGTGTA | -0.148
GTAGGGAA | -0.086
ATTACGAA | 0.00128
ATTACCAA | -0.0942
TCATTCAA | -0.0608
GCTCCCCC | 0.00992
GACCCAAA | 0.048
ATAGCAAA | 0.144
CACTGAAG | 0.0826
AATCCAAA | -0.00369
GTCCGCTA | 0.0971
CAGCGGCC | 0.019
AAACCGTA | -0.154
ATTGGTGA | -0.0312
CACTTAAC | -0.151

For quick reference, copied from above (sample 6):
Variant | relative binding score
A84L | 18.6%
N85G | 22.4%
S150C | 15.9%
T154C | 1.12%
H16N | -1.32%
V136Q | -5.21%
S42A | 31.8%
H110T | 47.7%
L28I | 71.1%
A170S | -3.09%
T1M | 46.6%
